Experimental data of several laboratories.
Each line is one published result; not all experiments were run side by side. Several values in a cell are separate wells, animals, samples, runs or records.

Under “structural aberrations with gaps”, `O=C1NC2(CC2)COc2ncc(F)cc2[C@H]2COCCN2c2ccn3ncc1c3n2` is recorded as 0.7% (CHL; 150 µg/mL, 4 h, with rat liver S9).
With `c1cc2nc(c1)-c1cccc(n1)CCCc1ccc(cc1)OCCCCCCOc1ccc(cc1)CCC2` the viability was 74.5% (HEK293; cell growth or viability, MTT; 50 µM, 24 h).
`C=C(NC(=O)c1csc(-c2nc3c(cc2O)-c2nc(cs2)C(=O)NC(C(C)O)C(=O)NC(=C(C)OC)c2nc(cs2)C(=O)NC2c4nc(cs4)C(=O)NC(COC(=O)c4c5c6c(cccc6n4O)COC(=O)C(OC4CC(C)(O)C(N(C)C)C(C)O4)C2OC5)c2nc-3cs2)n1)C(N)=O` (stereo not drawn) gave a Cmax of 2890 ng/mL (female Sprague-Dawley rat, plasma; intravenous, 2 mg/kg, single dose, infusion).
`Cc1ncsc1-c1ccc(C(C)NC(=O)C2CC(O)CN2C(=O)C(NC(=O)CCCCCCCCCCN2CCCC(Nc3ncc(Cl)c(Nc4ccccc4S(=O)(=O)C(C)C)n3)C2)C(C)(C)C)cc1` (stereo not drawn) — result for “log2 fold change”: -2.31 (22Rv1; RNA-seq, refers to: ZFHX2 mRNA; concentration not given; reference: DMSO).
`COc1cc(N2CCN(C(=O)C3CCCN3)CC2)ccc1Nc1ncc(Cl)c(Nc2ccccc2P(C)(C)=O)n1` (stereo not drawn) has a viability of 58% and 60% and 57% (Ba/F3 EML4-ALK; cell growth or viability, CCK-8; 1 µM, 6 h).
`N=C(N)NCCC[C@@H]1NC(=O)[C@H](CCCNC(=N)N)NC(=O)[C@@H](CCCNC(=N)N)NC(=O)[C@@H](CCCNC(=N)N)NC(=O)[C@@H](C(c2ccccc2)c2ccccc2)NC(=O)[C@H](Cc2c[nH]c3ccccc23)NC(=O)[C@@H](C(c2ccccc2)c2ccccc2)NC1=O` gave a viability of > 90% (human liver cells; MTS; 100 µg/mL, 24 h).
With `Cc1ccc(C(NC(=O)c2cc(-c3ccccc3)n(-c3ccccc3)n2)c2ccncc2)cc1` (stereo not drawn) the viability was > 95% (Vero; cell growth or viability; 12.5 µM).
`CC[C@H](C)[C@@H](C(=O)N[C@@H](Cc1ccc(O)cc1)C(=O)N1CCC[C@H]1C(=O)N[C@@H](Cc1ccccc1)C(=O)O)n1cc(C(Cc2ccc(O)cc2)NC(=O)[C@@H](NC(=O)[C@H](CCCNC(=N)N)NC(=O)[C@@H](N)CC(=O)O)C(C)C)nn1` (stereo partly drawn) has a viability of 81.8% (HEK293; cell growth or viability, MTT; 100 µM, 24 h).
`CN1CCCNC(=O)c2cccc(c2)C(=O)NCCCN(C)CCCNc2cccc3c2C(=O)c2cccc(c2C3=O)NCCC1` gave a viability of 47.7% (Ca9-22; cell growth or viability, CCK-8; 0.5 µM, 48 h).
The viability of `N=C(N)NCCC[C@@H]1NC(=O)[C@H](CCCNC(=N)N)NC(=O)[C@@H](Cc2ccc3ccccc3c2)NC(=O)[C@H](Cc2c[nH]c3ccccc23)NC(=O)[C@@H](Cc2ccc3ccccc3c2)NC(=O)[C@@H](CCCNC(=N)N)NC(=O)[C@@H](CCCNC(=N)N)NC1=O` is reported as 74 to 77% (human liver cells; MTS; 200 µg/mL, 24 h).
The viability of `NC(=O)c1cccc(NC(=O)c2cc(-c3ccccc3)n(-c3ccccc3)n2)c1` is reported as > 95% (Vero; cell growth or viability; 12.5 µM).
With `CNS(=O)(=O)Nc1nccc(Cc2c(C)c3ccc(Oc4ncccc4F)cc3oc2=O)c1F` the IC50 was 521 nM (RERF-LC-MS; cell viability, CellTiter-Glo; 7 days).
`COC1CN([C@H]2CC[C@H]([C@@]3(C)Oc4c(Cl)cc(C(=O)NCc5c(SC)cc(C)[nH]c5=O)c(C)c4O3)CC2)C1` — result for “log2 fold change”: 0.0893 (RNA-seq, refers to: LRRC1 mouse homolog; mouse, HT-1376 xenograft, whole blood; dose not given; reference: vehicle).
`O=CCNCCOn1c(=O)n(OCCNCCO)c(=O)n(OCCNCCOn2c(=O)n(OCCNCCO)c(=O)n(OCCNCCO)c2=O)c1=O` gave a viability of 11.5% (HUVEC; cell growth or viability, MTT; 50 µg/mL, 72 h).
The viability of `CC(=O)N[C@@H](Cc1c[nH]c2ccccc12)C(=O)N[C@@H](Cc1c[nH]c2ccccc12)C(=O)N[C@@H](Cc1c[nH]c2ccccc12)C(=O)N[C@@H](Cc1c[nH]c2ccccc12)C(=O)NCCCC[C@@H]1NC(=O)[C@H](CCCNC(=N)N)NC(=O)[C@H](CCCNC(=N)N)NC(=O)[C@H](CCCNC(=N)N)NC(=O)[C@H](CCCNC(=N)N)NC(=O)[C@H](CCCNC(=N)N)NC1=O` is reported as ≥ 89% (CCRF-CEM; MTS; up to 10 µM, 24 h).

A few entries again:
With `Cc1ccc(C(NC(=O)c2cc(-c3ccccc3)n(-c3ccccc3)n2)c2ccncc2)cc1` (stereo not drawn) the viability was > 95% (Vero; cell growth or viability; 12.5 µM).
With `CNS(=O)(=O)Nc1nccc(Cc2c(C)c3ccc(Oc4ncccc4F)cc3oc2=O)c1F` the IC50 was 521 nM (RERF-LC-MS; cell viability, CellTiter-Glo; 7 days).
